Published values from different studies.
Protocols differ between the studies behind these lines. Numbers after ± are the reported error.

SMILES | test | test system | conditions | how to read | quantity | value
O=C1CCc2ccc(OCCCCN3CCN(c4cccc(Cl)c4Cl)CC3)cc2N1 | – | healthy Japanese men, CYP2D6 IM, plasma | oral, 3 mg aripiprazole single, together with: fluvoxamine 100 mg/day | – | AUC | 2530 ± 620 ng·h/mL
COc1cc2c(cc1OC)CN(CCc1ccc(NC(=O)c3cc(OC)c(OC)cc3NC(=O)c3cnc4ccccc4c3)cc1)CC2 | – | human, plasma | intravenous infusion, 4 mg/kg, up to 24 h after infusion end | – | AUC | 14500 ng·h/mL
O=C(c1cccnc1-c1ccncc1)N1CCC(O)(Cc2ccccc2)CC1 | – | healthy subjects, plasma | oral, 300 mg twice daily, day 1 | – | AUC over dosing interval | 1460 ng·h/mL
CN1CCN(c2ccc3nc(-c4c(N)c5c(F)cccc5[nH]c4=O)[nH]c3c2)CC1 | – | patients, plasma | oral, 300 mg daily 5 days on 2 off, day 19, AUC 0-24 h median, together with: gemcitabine and capecitabine | – | AUC | 3850 ng·h/mL
Cc1cc(Nc2cc(N3CCN(C)CC3)nc(Sc3ccc(NC(=O)C4CC4)cc3)n2)[nH]n1 | – | patients, plasma | continuous intravenous infusion, 8 to 96 mg/m2/h, 24 h infusion, mean across doses | – | AUC | 6.4 to 167 µM·h
Nc1nc(NC2CC2)c2ncn([C@H]3C=C[C@@H](CO)C3)c2n1 | – | HIV-infected children and adolescents, plasma | oral, 8 mg/kg, 0 to 8 h | – | AUC | 8400 ng·h/mL
CC(C)(CO)c1cc2cc(NC(=O)C3(c4ccc5c(c4)OC(F)(F)O5)CC3)c(F)cc2n1C[C@@H](O)CO | – | healthy subjects, plasma | oral, 25 mg once daily, together with: ivacaftor 50 mg, itraconazole 200 mg | reference: with over without itraconazole | AUC ratio | 4.02
Cn1cnc2c(F)c(Nc3ccc(Br)cc3Cl)c(C(=O)NOCCO)cc21 | – | ESRD on hemodialysis, plasma | oral, 50 mg single dose, dosed after dialysis, LS mean | – | AUC | 1880 ng·h/mL
CC(C)(C)c1cc(C(C)(C)C)c(NC(=O)c2c[nH]c3ccccc3c2=O)cc1O | – | healthy subjects, plasma | oral, 50 mg once daily, together with: tezacaftor 25 mg, itraconazole 200 mg | reference: with over without itraconazole | AUC ratio | 15.6
CO[C@H]1C[C@@H]2CC[C@@H](C)[C@@](O)(O2)C(=O)C(=O)N2CCCC[C@H]2C(=O)O[C@H]([C@H](C)C[C@@H]2CC[C@@H](OCCO)[C@H](OC)C2)CC(=O)[C@H](C)/C=C(\C)[C@@H](O)[C@@H](OC)C(=O)[C@H](C)C[C@H](C)/C=C/C=C/C=C/1C | HPLC-MS/MS | responder patients, whole blood | dose not given, cycle 1 day 15 | reference: partial or non-responders | AUC at steady state | increased
Cc1cc(=O)n(-c2ccccc2)n1C | – | perfused human placental cotyledon | 531 µM, 1 to 120 min, maternal to fetal, together with: barusiban 1.2 µM | – | AUC of placental transfer | 3510 ± 988 %·min
CNCc1ccc(-c2[nH]c3cc(F)cc4c3c2CCNC4=O)cc1 | noncompartmental analysis | patients, plasma | oral, 500 mg twice daily, day 1, together with: bevacizumab infusion | – | AUC at steady state | 16700 ± 4600 ng·h/mL

Repeated from above:
SMILES | test | test system | conditions | how to read | quantity | value
CC(C)(CO)c1cc2cc(NC(=O)C3(c4ccc5c(c4)OC(F)(F)O5)CC3)c(F)cc2n1C[C@@H](O)CO | – | healthy subjects, plasma | oral, 25 mg once daily, together with: ivacaftor 50 mg, itraconazole 200 mg | reference: with over without itraconazole | AUC ratio | 4.02
